Experimental data of several laboratories.
Every numbered part comes from another study and shows a few of its results, in no order.

Block 1
Target: Phosphate system positive regulatory protein PHO4, full length, GST-tagged (PHO4, Saccharomyces cerevisiae, UniProt P07270, residues 1-312)
Method: competition protein-binding microarray
Molecule type: double-stranded DNA, one strand shown
Sample: in vitro
Tested at: 2 µM
Notes: whole 60-bp probe, lowest competitor level
With: Cbf1 competitor, 0.05 µM
Direction: higher = stronger binding
Constant ends, left off below: … GTCTTGATTCGCTTGACGCTGCTG
Residues (chain): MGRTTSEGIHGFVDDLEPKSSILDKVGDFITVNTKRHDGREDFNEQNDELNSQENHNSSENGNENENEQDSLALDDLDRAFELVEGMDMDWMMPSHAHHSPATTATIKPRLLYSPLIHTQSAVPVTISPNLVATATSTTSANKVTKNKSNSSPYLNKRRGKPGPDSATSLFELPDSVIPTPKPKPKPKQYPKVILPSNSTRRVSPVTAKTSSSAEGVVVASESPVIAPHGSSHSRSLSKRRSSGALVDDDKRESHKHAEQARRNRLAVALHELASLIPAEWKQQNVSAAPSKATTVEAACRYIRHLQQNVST
Strand | fluorescence intensity [a.u.]
TCTATAATAACGTCCCACGTGAAAATACCAACCTCT | 14900
CATACCCAACCTTTTCACGTGACTTAAGATATTTGT | 12500
CTGTGAGACCAGTTAAAGACCTCTCTCAAGAAAAAT | 3150
TCTCTGGCCTCCCATCACGTTACTTTATTACCCGGA | 7050
CTAACGAAGGTTTTTCACGTGTGGTACAAGCCAAGT | 13300
CTAACGAAGGTTTGATCAGTGGGTGACAAGCCAAGT | 3330
AAATTACTAAGTTGTCACGGGACTTACCCCGTATGA | 6070
GTCTTGTCTCATTGGGCGGTGGGTGTCCCCACTTCA | 4850
CTTCTGTAAATTTTTCACGTGGGTTGACGCGCCCCG | 12800

Block 2
Target: RING finger protein unkempt homolog, zinc fingers 1-6, GST-SBP tag (UNK, Homo sapiens, UniProt Q9C0B0, residues 30-357)
Sequence of UniProt Q9C0B0 (30-357, looked up): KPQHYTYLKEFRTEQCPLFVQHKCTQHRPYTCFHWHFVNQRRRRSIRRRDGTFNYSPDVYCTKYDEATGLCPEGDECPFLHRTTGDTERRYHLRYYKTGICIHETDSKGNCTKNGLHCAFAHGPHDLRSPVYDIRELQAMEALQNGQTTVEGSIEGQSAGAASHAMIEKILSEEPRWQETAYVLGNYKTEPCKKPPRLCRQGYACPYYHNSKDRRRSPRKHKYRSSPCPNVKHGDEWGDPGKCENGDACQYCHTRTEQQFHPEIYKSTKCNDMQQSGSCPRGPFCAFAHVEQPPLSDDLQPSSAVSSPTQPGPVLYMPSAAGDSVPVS
Method: RNA Bind-n-Seq
Molecule type: RNA
Sample: in vitro
Tested at: not given
Notes: RNA with constant flanks, human-mouse chimeric sites, ends assumed
Reference: input RNA pool
Direction: higher = stronger binding
Constant ends, left off below: GGGAGUUCUACAGUCCGACGAUC … CAACAGAGGAUUGAGCAUCA
Strand | bound/input enrichment
ACCUCCCCCUCCCGCCUCACCCCACCCAAGAAAGAAAGAAAGUUUUUGGCGUUUCUUUUCCUUCCCCAUACAAAGUGAUUACAGUUUCCCCCGCAAGUGGGGCUUGAAGGGCUUGACGGA | 0.233 ratio
AAUGUUCUUAAUAUUUUUGAAUAAAUGUAAAACCAUGGUCUGCUUUUGGUACAACACGCAUUAAUAAAAGGUUAAGUUUUGUUUUCCACUGAAGUACUAUUUAACAUCUCAGAAAAAAAC | 0.147 ratio
UUUCUACUGCAGCAAACGAUGCUAAGAAUUAAGGAUCCUAAGAAGUCCCUGGAUUUUUAUACGAGGGUUCUUGGACUGACGCUAAUCCAGAAGCUUGACUUCCCUGCUAUGAAGUUUUCG | 0.126 ratio
GCUCUUGGGAAUGUAAUCAGCGCCUUGGGGGACAAGAGCAAGAGAGCCACCCAUGUCCCUUACAGAGACUCUAAGCUGACAAGACUCCUACAGGAUUCCCUCGGGGGUAACAGCCAAACC | 0.169 ratio
CUGUGUGUGCUGAAUAAUGAUUUGUGAAAGAAGUUUUUCCAAGCUGUAACCCAUGCUGUUAUUAUAGUUGCUGCAAAAUGUCUCUUAUGAUAUUGAUUUUAUUUGUUAACUGAAGGUCUC | 0.365 ratio
AAAGAAAAUGGAGAUGUAAAGAUUUUACUGAAAAGUGGGAAGGAGAAACCAAAAACAAAUAUAGAAGACUUACAAAUUAAAAAGGUAAAGAAGAAAAAGAAAAAGAAACACAAAGAGAAU | 16 ratio

Block 3
Target: RNA binding protein fox-1 homolog 2, RRM domain, GST-SBP tag (RBFOX2, Homo sapiens, UniProt O43251-10, residues 100-194)
Method: RNA Bind-n-Seq
Molecule type: RNA
Sample: in vitro
Tested at: 365 nM
Notes: natural RNA segment, single round, ends assumed
Reference: no-protein control
Direction: higher = stronger binding
Constant ends, left off below: GGGAGUUCUACAGUCCGACGAUC … UGGAAUUCUCGGGUGCCAA
Construct (chain): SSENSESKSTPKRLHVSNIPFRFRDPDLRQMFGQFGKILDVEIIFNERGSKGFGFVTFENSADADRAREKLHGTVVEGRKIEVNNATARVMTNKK
Strand | RBNS enrichment (R)
GAUGCCAUUUGGCAGCUUAAGCACAUCCUGCCAGCAGGCUUUAAGUGGCUGUUCUAGGCAUAGCCCUCCCUGAACUAGAAAGGAGAGUAACCAGUUUGCUAUGCUGCAUC | 0.445
UUUGGAUUCCUAACCUUAAGUGAGCUGUAAACAAUGUGAAUGGAGCUCUGGCCAGUCACCUUUAACCCAGCAGCUUGGGUUCAGUGUCACCUACGGAUUAUUUCUCUUUC | 0.262
UUCUCACUGACCUCUUCCUAGCAGCUUAGAUAGCCUCAGACAUGACUGCCAGGAUUCCUGAUAUGCCCUGGCUUUGGAGAGUCCCUAGGGAUGCCCACUCGGGGGUGUAG | 0.552
UCCUCCUCACUUAGCACCUAGGGGUGUCAGGGUCGGGAGUAGGACCUGUCCUGACCUCAGGGUUAUAUAUAGCCCUUCCCCACUCCCUCCUACGAGAGUUCUGGCAUAAA | 0.261
CAGGAAGACCAAGGCCUCGGCAGAACUCUCUGUCUUCUCUCCACUUCUGGUCCCCUGUGGUGAUGUGCCUGUAAUCUUUUUCUCCACCCAAACCCCUUCCCACGACAAAA | 3.78
CAAAGGCUAUGCUUGCCUCCGGCUGAGUGCCUGGGAUAGGCCUUUUCUAUGUCUCCCCAAGGCUGGGGUGCUGAGCCUGCCUUCCUCACCACCUAGCCAUAGUCUCAAAC | 0.893
UUAACUAAGGAGAGACAUACUGGUAUAUCAUUUUACUACAAGCUACAGAUAACCUGUUGAGCUUGUGCCUUGAUUGUUUUAACAACUAGUGCAAAUCAACCUGAUGAUUU | 0.378
UUGGAUUUAUCGCAAAAACUGAAGGUUUGCGCAAGAGACGAGGACAGCGGAAAGUGGACCUGCCAGGCCGGGAGUGUGUCCCUCACCAACUAUGCACACAGCACUCGCUC | 0.522
GCCUGGGUGUCCUCACAGUUCUAUAACAAGUGACUUGCUCCUUAGGGGAUGUUUGCCUUUAAGGUUUUAUACUUUGUUUGGUUUGGAAAGAUGCUUUAAAUUAAAUUUGG | 0.395
GGUCCCUUGCAGCUAGUUUUCUAGAAUUUAUCACACUUCUGUGAGACCCCCACACCUCAGUUCCCUUGGCCUCAGAAUUCACAAAAUUUCCACAAAAUCUGUCCAAAGGA | 0.585
ACGGGGGCCGCGUGGUGCCAUCCCCAGGGGGCAUGACCAGAUGCGUCCCAAGAUGUUGAUUUUUACUGUGUUUUAUAAAAUAGAGUGUAGUUUACAGAAAAAGACUUUAA | 0.526
GCCGAGUUUGGGCCACUGCACUCUAGCCUGGCAACAGAGCAAGACUCCGUCUCAAAAAAAGGGCAAUAAAUGCCCUCUCUGAAUGUUUGAACUGCCAAGAAAAGGCAUGG | 1.11

Single results of other studies
Substance | target | test | test system | conditions | how to read | endpoint | result
PhoQ, residues 284 288 289 292 302 303 ASTSDA | PhoP, residues 12 14 15 18 19 QWHVF (Escherichia coli, UniProt P23836) | Sort-seq, refers to: YFP reporter | E. coli | PhoQ-PhoP variant library, with: 10 µM Mg2+ | reference: high Mg2+ state, higher = stronger signaling | fold induction | 16.2

Excerpt of the above (block 3):
Strand | RBNS enrichment (R)
UCCUCCUCACUUAGCACCUAGGGGUGUCAGGGUCGGGAGUAGGACCUGUCCUGACCUCAGGGUUAUAUAUAGCCCUUCCCCACUCCCUCCUACGAGAGUUCUGGCAUAAA | 0.261
CAGGAAGACCAAGGCCUCGGCAGAACUCUCUGUCUUCUCUCCACUUCUGGUCCCCUGUGGUGAUGUGCCUGUAAUCUUUUUCUCCACCCAAACCCCUUCCCACGACAAAA | 3.78
CAAAGGCUAUGCUUGCCUCCGGCUGAGUGCCUGGGAUAGGCCUUUUCUAUGUCUCCCCAAGGCUGGGGUGCUGAGCCUGCCUUCCUCACCACCUAGCCAUAGUCUCAAAC | 0.893
UUAACUAAGGAGAGACAUACUGGUAUAUCAUUUUACUACAAGCUACAGAUAACCUGUUGAGCUUGUGCCUUGAUUGUUUUAACAACUAGUGCAAAUCAACCUGAUGAUUU | 0.378
